# Results of several laboratories.
# Every numbered part comes from another study and shows a few of its results, in no order.

# Block 1
# Target: Interferon regulatory factor 5, full length, phosphomimetic (IRF5, Homo sapiens, UniProt Q13568-2, residues 1-514, S451D/S453D/S456D/S462D)
# Technique: protein-binding microarray
# Molecule type: double-stranded DNA, one strand shown
# Medium: in vitro
# Concentration: 940 nM top
# Notes: 60-bp whole probe
# Added: salmon DNA 0.4 mg/ml
# Baseline: random background probes
# Reading: higher = stronger binding
# Shared flanks, not repeated: GCCTAGCAC … GTCTTGATTCGCTTGACGCTGCTG
Oligonucleotide,fitted relative affinity [z-score]
GACGAACTGAGTTTCGAGATGTGCTAG,3.28
GACGGTCTCGGAATCGGGACGTGCTAG,1.55
TTAGGACTGGGGTTTCGGCTAGTGCTA,2.48
ATGTATACACACTATAGTGAAGTGCTA,0.236
TTAGGACTGGACTTTCGGTTCGTGCTA,1.82
TTAGGTTCCGGTTTAGGTTAGTGCTAG,4.57
TTAGGTTTCGACACTGGGTTAGTGCTA,8.1
ATAGGTTTCGACACTGGGTTAGTGCTA,7.01

# Block 2
# Target: PABPC1L2, full length, GST fusion (mouse, UniProt A0ABA7IW68)
# Technique: RNAcompete
# Molecule type: RNA
# Medium: in vitro
# Concentration: 20 nM
# Notes: 7-mer, probes averaged, single round
# Baseline: mean of 7-mers
# Reading: higher = stronger binding
# Construct (chain): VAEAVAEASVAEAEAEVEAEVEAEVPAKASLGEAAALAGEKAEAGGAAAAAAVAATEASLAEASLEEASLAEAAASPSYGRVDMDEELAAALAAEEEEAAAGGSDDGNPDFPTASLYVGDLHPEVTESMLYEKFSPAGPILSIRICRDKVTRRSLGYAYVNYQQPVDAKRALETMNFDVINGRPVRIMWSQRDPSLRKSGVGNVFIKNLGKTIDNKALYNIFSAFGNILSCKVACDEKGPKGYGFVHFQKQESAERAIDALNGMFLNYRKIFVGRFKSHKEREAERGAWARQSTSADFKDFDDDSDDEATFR
Oligonucleotide,7-mer Z-score
UAUCAUC,-0.282
AGCACUA,-0.122
GGCUCCC,-0.197
AGACUAU,-0.249
AGUAGUC,-0.197
UUAGUCG,-0.354
AGCAUUC,-0.161
UAAGGGU,0.0261

# Single results of other studies
Molecule,target or system,test,system,setting,quantity,value
"EEF1G (Homo sapiens, UniProt P26641)","USP48 (Homo sapiens, UniProt Q86UV5)",cross-linking MS,cell fractions,added: DSSO,cross-linked residues,K219 to K201
CC(C)(C)NC(=O)Cn1nc2c(-c3nc(-c4cccc(F)c4)no3)cccn2c1=O,,,"human, microsomes or S9","2 µM, 0.5 h",remaining compound,> 100%
"MAGOH (Homo sapiens, UniProt P61326)","PNN (Homo sapiens, UniProt Q9H307)",cross-linking MS,,hits only,interaction screen,cross-linked
"RBM39 (Homo sapiens, UniProt Q14498)","SREK1 (Homo sapiens, UniProt Q8WXA9)",cross-linking MS,cell fractions,added: DSSO,cross-linked residues,K244 to K94

# A few entries again (block 1):
Oligonucleotide,fitted relative affinity [z-score]
GACGGTCTCGGAATCGGGACGTGCTAG,1.55
TTAGGACTGGGGTTTCGGCTAGTGCTA,2.48
ATAGGTTTCGACACTGGGTTAGTGCTA,7.01
